Assay results pooled from the literature.
Compare with care: the assays were run in different laboratories. Several values in a cell are separate wells, animals, samples, runs or records. Numbers after ± are the reported error. Converted amounts (≈) assume the structure as drawn.

SMILES	assay	system	setting	how to read	quantity	result
CC(=O)[O][Pt]([NH2])([Cl])([Cl])([NH]C1CCCCC1)[O]C(C)=O	atomic absorption spectroscopy, item: platinum	rhesus monkey, plasma ultrafiltrate	intravenous infusion over 1 h, 6 mg/kg	–	AUC(0-inf)	32.1 µM·h and 35.1 µM·h and 38.2 µM·h
[123I]c1cncc(OC[C@@H]2CCN2)c1	SPECT	human, hippocampus	intravenous bolus plus infusion, 7.6 mCi	baseline: tissue over plasma	tissue/plasma ratio	35
COc1cccc2c1cc([N+](=O)[O-])c1c(C(=O)O)cc3c(c12)OCO3	–	Sprague-Dawley rat, male, isolated perfused kidney	50 µM, kidney A	–	renal clearance	0.00142 mL/min
COc1cc(-c2nc(-c3ccccc3)c(-c3cccs3)[nH]2)cc(OC)c1OP(=O)(O)O	–	C57BL/6 mouse, CES1 knockout, brain homogenate	10 µM, 1 h, 37 °C	–	remaining compound	> 75%
CC[C@H](C)[C@H](NC(=O)[C@H](C)NC(=O)[C@H](CCCCN)NC(=O)[C@H](CC(C)C)NC(=O)[C@H](C)NC(=O)[C@@H](NC(=O)[C@H](Cc1c[nH]cn1)NC(=O)[C@H](CC(C)C)NC(=O)[C@@H](NC(=O)[C@@H](NC(=O)[C@H](CCCCN)NC(=O)[C@H](CCCCN)NC(=O)[C@H](C)NC(=O)[C@H](CO)NC(=O)[C@H](CCCCN)NC(=O)[C@H](Cc1ccccc1)NC(=O)[C@@H](NC(=O)[C@H](CCCCN)NC(=O)[C@H](CC(C)C)NC(=O)[C@H](Cc1ccccc1)NC(=O)[C@H](CO)NC(=O)[C@H](CCCCN)NC(=O)[C@H](Cc1c[nH]c2ccccc12)NC(=O)[C@H](CCCCN)NC(C)=O)[C@@H](C)O)[C@@H](C)O)C(C)C)[C@@H](C)O)C(=O)N[C@@H](CO)C(=O)N[C@@H](CO)C(N)=O	circular dichroism at 222 nm	KCl phosphate buffer	75 µM, pH 7.4, 65 °C	–	mean residue ellipticity	-4050 deg cm² dmol⁻¹
CN[C@@](C)(C[18F])C(=O)O	–	mouse, muscle	15 min, tumour-bearing	–	tracer uptake	1.2 %ID/g
Oc1ccc2ccc3c4ccccc4cc4ccc1c2c43	UPLC-AMS	human, plasma	oral, 250 ng of [14C]-BaP	–	AUC	35.7 ± 28.9 fg BaP equivalents·h/mL
O=C(NCCS)c1cccc(C(=O)NCCS)c1	–	rat, Sprague-Dawley, male, plasma	intravenous, 1 mg/kg	–	clearance	14.3 mL/min/kg
CSCC[C@@H]1NC(=O)[C@H](CC(=O)O)NC(=O)CNC(=O)[C@H](CCCNC(=N)N)NC(=O)[C@H](C)NC(=O)[C@H](CCC(=O)O)NC(=O)[C@H](CCCNC(=N)N)NC(=O)[C@@H]2CSSC[C@@H]3NC(=O)[C@H](CO)NC(=O)[C@H]([C@@H](C)O)NC(=O)[C@@H]4CCCN4C(=O)[C@H](C)NC(=O)[C@H](Cc4c[nH]c5ccccc45)NC(=O)[C@H](CC(=O)O)NC(=O)CNC(=O)[C@H](CCCNC(=N)N)NC(=O)CNC(=O)[C@H](CCC(N)=O)NC(=O)[C@@H]4CCCN4C(=O)[C@@H](NC(=O)CNC(=O)C(C)F)CSSC[C@H](NC(=O)CNC(=O)[C@H](C)NC(=O)[C@H](CC(C)C)NC(=O)[C@H](CSSC[C@@H](C(=O)NCC(N)=O)NC(=O)[C@H]([C@@H](C)O)NC(=O)[C@H](CCCNC(=N)N)NC(=O)[C@@H]4CCCN4C1=O)NC(=O)[C@H](CC(=O)O)NC(=O)[C@H](CO)NC(=O)[C@H](CC(=O)O)NC(=O)[C@H](CCC(N)=O)NC(=O)[C@H](CO)NC3=O)C(=O)N[C@@H](C(C)C)C(=O)N2 (some centres unmarked) [fluorine-18 labelled]	–	nude mice U-87 MG xenograft, stomach	intravenous, 2.5 h	–	tissue uptake	0.68 ± 0.16 %ID/g
CCCCCOc1ccc(-c2cc(-c3ccc(C(=O)N[C@H]4C[C@@H](O)[C@@H](O)NC(=O)[C@@H]5[C@@H](O)[C@@H](C)CN5C(=O)[C@H]([C@H](O)CC(N)=O)NC(=O)[C@H]([C@H](O)[C@@H](O)c5ccc(O)c(OS(=O)(=O)O)c5)NC(=O)[C@@H]5C[C@@H](O)CN5C(=O)[C@H]([C@@H](C)O)NC4=O)cc3)no2)cc1	–	human paediatric patients 6 to sample C years, plasma	intravenous, 3 mg/kg once daily, day 7, median	–	steady-state clearance	6.33 mL/min
NC(=O)c1nc(F)c[nH]c1=O	UV-Vis spectrophotometry	supercritical CO2	120 min, 338 K, 21 MPa, 709.69 kg/m^3	–	solubility	995 µg/mL (≈ 6.33 mM)

Repeated from above:
SMILES	assay	system	setting	how to read	quantity	result
CCCCCOc1ccc(-c2cc(-c3ccc(C(=O)N[C@H]4C[C@@H](O)[C@@H](O)NC(=O)[C@@H]5[C@@H](O)[C@@H](C)CN5C(=O)[C@H]([C@H](O)CC(N)=O)NC(=O)[C@H]([C@H](O)[C@@H](O)c5ccc(O)c(OS(=O)(=O)O)c5)NC(=O)[C@@H]5C[C@@H](O)CN5C(=O)[C@H]([C@@H](C)O)NC4=O)cc3)no2)cc1	–	human paediatric patients 6 to sample C years, plasma	intravenous, 3 mg/kg once daily, day 7, median	–	steady-state clearance	6.33 mL/min
